{"data": "Published values of several laboratories", "note": "Each line is one published result; not all experiments were run side by side."}
{"SMILES": "Cc1ccc(Nc2ncc3c(n2)N(Cc2ccccc2)C(=O)N(c2cc(NC(=O)c4cccc(C(F)(F)F)c4)ccc2C)C3)cn1", "cell line": "Hep3B", "assay": "cell growth or viability, ATP luminescence", "conditions": "72 h", "GI50 [nM]": 633}
{"SMILES": "COC(C(=NOCCCCc1c[nH]c2ccccc12)C(O)C(C)O)C1Cc2cc3cc(OC4CC(OC5CC(O)C(O)C(C)O5)C(O)C(C)O4)c(C)c(O)c3c(O)c2C(=O)C1OC1CC(OC2CC(OC3CC(C)(O)C(O)C(C)O3)C(O)C(C)O2)C(O)C(C)O1 (stereo not shown)", "cell line": "TC-32", "assay": "cell growth", "conditions": "72 h", "GI50 [nM]": 60}
{"SMILES": "O=c1[nH]c(N2CCC3(CC2)CN(CCO)c2cc(F)cc(F)c23)nc2c1CCCC2", "cell line": "COLO 320DM", "assay": "cell growth or viability, MTT", "conditions": "5 days", "GI50 [nM]": 449}
{"SMILES": "C1=[N+]2CCCC[N+]3=Cc4ccc5[n]4[Au-]23[n]2c1ccc2-c1nc2ccccc2nc1-5.F[P-](F)(F)(F)(F)F", "cell line": "colon cancer cell lines", "conditions": "NCI60 panel mean", "GI50 [nM]": 7000}
{"SMILES": "COC(C(=NOCC(=O)Nc1cncnc1)C(O)C(C)O)C1Cc2cc3cc(OC4CC(OC5CC(O)C(O)C(C)O5)C(O)C(C)O4)c(C)c(O)c3c(O)c2C(=O)C1OC1CC(OC2CC(OC3CC(C)(O)C(O)C(C)O3)C(O)C(C)O2)C(O)C(C)O1 (stereo not shown)", "cell line": "TC-32", "assay": "cell growth", "conditions": "72 h", "GI50 [nM]": 361}
{"SMILES": "CC/C=C\\C/C=C\\C/C=C\\C/C=C\\C/C=C\\C/C=C\\CCC(=O)Nc1ccn(C2OC(CO)C(O)C2(F)F)c(=O)n1 (stereo not shown)", "cell line": "LOX IMVI", "assay": "cell growth or viability, SRB", "GI50 [nM]": 41.4}
{"SMILES": "CCC(=C(c1ccc(Cl)cc1)c1ccc(OCCCN(C)C)cc1)c1ccc(OC)cc1", "cell line": "OVCAR-5", "assay": "cell growth or viability", "GI50 [nM]": 6540}
{"SMILES": "COC(C(=NOCCCc1c[nH]c2ccccc12)C(O)C(C)O)C1Cc2cc3cc(OC4CC(OC5CC(O)C(O)C(C)O5)C(O)C(C)O4)c(C)c(O)c3c(O)c2C(=O)C1OC1CC(OC2CC(OC3CC(C)(O)C(O)C(C)O3)C(O)C(C)O2)C(O)C(C)O1 (stereo not shown)", "cell line": "TC-32", "assay": "cell growth", "conditions": "72 h", "GI50 [nM]": 59}
{"SMILES": "COC(=O)c1cc(OC)nc2c(-c3ccc(N4CCCCC4)cc3)csc12", "cell line": "best of six cancer lines", "assay": "SRB", "GI50 [nM]": "< 10000"}
{"SMILES": "Cn1cc(-c2cc(N3CCCCS3(=O)=O)ccc2N[C@H]2CC[C@H](C)CC2)c2cc[nH]c2c1=O (stereo in doubt)", "cell line": "CAL-27", "assay": "cell growth or viability, CCK-8", "conditions": "72 h", "GI50 [nM]": 120}
{"SMILES": "CC(Cc1ccc(Cl)cc1)=C(c1ccc(Cl)cc1)c1ccc(OCCN(C)C)cc1", "cell line": "RXF 393", "assay": "cell growth or viability", "GI50 [nM]": 3450}
{"SMILES": "Cc1ccc(Nc2ncc3c(n2)N(C2CC2)C(=O)N(c2cc(NC(=O)c4cccc(C(F)(F)F)c4)ccc2C)C3)cn1", "cell line": "Hep3B", "assay": "cell growth or viability, ATP luminescence", "conditions": "72 h", "GI50 [nM]": 1070}
{"SMILES": "COC1CN([C@H]2CC[C@H]([C@@]3(C)Oc4c(Cl)cc(C(=O)NCc5c(SC)cc(C)[nH]c5=O)c(C)c4O3)CC2)C1", "cell line": "RT-4", "assay": "cell growth or viability, ATP luminescence", "conditions": "12 days", "GI50 [nM]": "> 1000"}
{"SMILES": "Cc1ccc(NC(=O)c2cccc(C(F)(F)F)c2)cc1N1Cc2cnc(Nc3ccccc3)nc2N(C)C1=O", "cell line": "Huh-7", "assay": "cell growth or viability, ATP luminescence", "conditions": "72 h", "GI50 [nM]": 66}
{"SMILES": "COC(C(=NOCC(=O)NCc1ccccc1)C(O)C(C)O)C1Cc2cc3cc(OC4CC(OC5CC(O)C(O)C(C)O5)C(O)C(C)O4)c(C)c(O)c3c(O)c2C(=O)C1OC1CC(OC2CC(OC3CC(C)(O)C(O)C(C)O3)C(O)C(C)O2)C(O)C(C)O1 (stereo not shown)", "cell line": "TC-32", "assay": "cell growth", "conditions": "72 h", "GI50 [nM]": 115}
{"SMILES": "CCN1C(=O)N(c2cc(NC(=O)c3cccc(C(F)(F)F)c3)ccc2C)Cc2cnc(Nc3ccc(C)nc3)nc21", "cell line": "Huh-7", "assay": "cell growth or viability, ATP luminescence", "conditions": "72 h", "GI50 [nM]": 57}
{"SMILES": "CC(=C(c1ccc(O)cc1)c1ccc(Cl)cc1)c1ccc(Cl)cc1", "cell line": "OVCAR-5", "assay": "cell growth or viability", "GI50 [nM]": 2900}
{"SMILES": "Cc1ccc(Nc2ncc3c(n2)N(C)C(=O)N(c2cc(NC(=O)c4cc(N5CCC(O)CC5)cc(C(F)(F)F)c4)ccc2C)C3)cn1", "cell line": "Huh-7", "assay": "cell growth or viability, ATP luminescence", "conditions": "72 h", "GI50 [nM]": 37}
{"SMILES": "COC(C(=NOCc1ccccc1)C(O)C(C)O)C1Cc2cc3cc(OC4CC(OC5CC(O)C(O)C(C)O5)C(O)C(C)O4)c(C)c(O)c3c(O)c2C(=O)C1OC1CC(OC2CC(OC3CC(C)(O)C(O)C(C)O3)C(O)C(C)O2)C(O)C(C)O1 (stereo not shown)", "cell line": "TC-32", "assay": "cell growth", "conditions": "72 h", "GI50 [nM]": 117}
{"SMILES": "Cc1ccc(Nc2ncc3c(n2)N(C)C(=O)N(c2cc(NC(=O)c4ccccc4)ccc2C)C3)cn1", "cell line": "Huh-7", "assay": "cell growth or viability, ATP luminescence", "conditions": "72 h", "GI50 [nM]": 1390}
{"SMILES": "COC(C(=NO)C(O)C(C)O)C1Cc2cc3cc(OC4CC(OC5CC(O)C(O)C(C)O5)C(O)C(C)O4)c(C)c(O)c3c(O)c2C(=O)C1OC1CC(OC2CC(OC3CC(C)(O)C(O)C(C)O3)C(O)C(C)O2)C(O)C(C)O1 (stereo not shown)", "cell line": "TC-32", "assay": "cell growth", "conditions": "72 h", "GI50 [nM]": 231}
{"SMILES": "Cc1ccc(Nc2ncc3c(n2)N(C)C(=O)N(c2cc(NC(=O)c4ccc(CN5CCC(N(C)C)C5)c(C(F)(F)F)c4)ccc2C)C3)cn1 (stereo not shown)", "cell line": "Hep3B", "assay": "cell growth or viability, ATP luminescence", "conditions": "72 h", "GI50 [nM]": 120}
{"SMILES": "COC(C(=NOCc1ccc([N+](=O)[O-])cc1)C(O)C(C)O)C1Cc2cc3cc(OC4CC(OC5CC(O)C(O)C(C)O5)C(O)C(C)O4)c(C)c(O)c3c(O)c2C(=O)C1OC1CC(OC2CC(OC3CC(C)(O)C(O)C(C)O3)C(O)C(C)O2)C(O)C(C)O1 (stereo not shown)", "cell line": "TC-32", "assay": "cell growth", "conditions": "72 h", "GI50 [nM]": 75}
{"SMILES": "Cc1ccc(Nc2ncc3c(n2)N(c2ccccc2)C(=O)N(c2cc(NC(=O)c4cccc(C(F)(F)F)c4)ccc2C)C3)cn1", "cell line": "Huh-7", "assay": "cell growth or viability, ATP luminescence", "conditions": "72 h", "GI50 [nM]": 162}
{"SMILES": "COC(C(=NOCC(=O)Nc1cccnc1)C(O)C(C)O)C1Cc2cc3cc(OC4CC(OC5CC(O)C(O)C(C)O5)C(O)C(C)O4)c(C)c(O)c3c(O)c2C(=O)C1OC1CC(OC2CC(OC3CC(C)(O)C(O)C(C)O3)C(O)C(C)O2)C(O)C(C)O1 (stereo not shown)", "cell line": "TC-32", "assay": "cell growth", "conditions": "72 h", "GI50 [nM]": 77}
